Published values from different studies.
Protocols differ between the studies behind these lines. ± gives the spread as reported.

Cc1ccc(Sc2ccccc2N2CCNCC2)c(C)c1 — mean AUC(0-168 h) (healthy male humans fed, plasma; oral, 10 mg single, high-fat breakfast): 316 ng·h/mL
Cc1cn([C@H]2C[C@H](N=[N+]=[N-])[C@@H](COP(=O)(O)OP(=O)(O)O)O2)c(=O)[nH]c1=O — mean residence time (item: phosphorylated zidovudine metabolites; human, peripheral blood mononuclear cells; 600 mg zidovudine, single dose): 14.3 ± 6.35 h
CCCC1CCC(c2ccc(-c3ccc(CC)cc3)cc2)CC1 (stereo not drawn) — mean serum concentration (human mother-newborn pairs, female fetuses, cord serum): 0.3 ng/mL
C[C@@H](O)CCOC(=O)C[C@@H](C)O — mean arterial pressure (human; oral drink, dose not given, 90 min post dose, mean): 81 mmHg
CCc1ccc(C(=O)Oc2ccc(C#N)c(F)c2)cc1 — mean serum concentration (human mother-newborn pairs, female, maternal serum): 2.76 ng/mL
Cn1cc(-c2cn3nccc3c(-c3cnn([C@]4(CC#N)C[C@@H](C#N)C4)c3)n2)cn1 — mean residence time (healthy human fed; dose not given, day 10, once daily dosing): 9.2 h
C[C@H](CCC(=O)NCC(=O)O)[C@H]1CC[C@H]2[C@@H]3[C@H](O)C[C@@H]4C[C@H](O[C@@H]5O[C@H](C(=O)O)[C@@H](O)[C@H](O)[C@H]5O)CC[C@]4(C)[C@H]3CC[C@]12C — mean daily plasma concentration (human, plasma; control): 0.0336 ± 0.0058 µM
C=CC(=O)N(C)CCOc1c(N)ncnc1-c1cc(F)cc(NC(=O)c2ccc(C3CC3)cc2F)c1C — mean residence time (human, whole blood; oral, 30 mg, single ascending dose): 1.46 h
CCc1ccc(-c2ccc(-c3cc(F)c(F)c(F)c3)c(F)c2)cc1 — mean serum concentration (human mother-newborn pairs, female fetuses, cord serum): 0.46 ng/mL
NC[C@@]1(CC(=O)O)[C@@H]2CC[C@H]3C[C@@H]2[C@@H]1C3 — mean residence time (human, severe renal impairment, plasma; oral, 20 mg single dose, geometric mean): 16.5 h
C[C@H](CCC(=O)NCC(=O)O)[C@H]1CC[C@H]2[C@@H]3CC[C@@H]4C[C@H](OS(=O)(=O)O)CC[C@]4(C)[C@H]3C[C@H](O)[C@]12C — mean daily plasma concentration (human, plasma; control): 0.289 ± 0.07 µM
O=C(O)[C@H]1O[C@@H](Oc2ccc(/C=C\c3cc(O)cc(O)c3)cc2)[C@H](O)[C@@H](O)[C@@H]1O — mean concentration (human, plasma): 502 nM
CC=CC1CCC(C2CCC(CCC)CC2)CC1 (stereo not drawn) — mean serum concentration (human mother-newborn pairs, maternal serum): 1.31 ng/mL
C[C@H](CCC(=O)O[C@@H]1O[C@H](C(=O)O)[C@@H](O)[C@H](O)[C@H]1O)[C@H]1CC[C@H]2[C@@H]3[C@H](O)C[C@@H]4C[C@H](O)CC[C@]4(C)[C@H]3CC[C@]12C — mean daily plasma concentration (human, plasma; control): 0.0209 ± 0.0022 µM
Cc1ccc(O)c(-n2nc3ccccc3n2)c1 — mean daily dermal uptake (exposure assessment; human, age 16-21 years; spray sunscreen): 744 ng/kg body weight/day
N#Cc1ccc2c(c1)[C@H]1CCCN(C(=O)c3ccc4[nH]cnc4c3)[C@H]1C2 — mean ACTH level (human; 360 mg, day 7): 6.9 pmol/L
CCCC1CCC(c2ccc(OCC)c(F)c2F)CC1 (stereo not drawn) — mean serum concentration (human mother-newborn pairs, maternal serum): 2.27 ng/mL
C[C@H](CCC(=O)NCCS(=O)(=O)O)[C@H]1CC[C@H]2[C@@H]3CC[C@@H]4C[C@H](OS(=O)(=O)O)CC[C@]4(C)[C@H]3CC[C@]12C — mean daily plasma concentration (human, plasma; control): 0.121 ± 0.031 µM

A few entries again:
Cc1ccc(O)c(-n2nc3ccccc3n2)c1 — mean daily dermal uptake (exposure assessment; human, age 16-21 years; spray sunscreen): 744 ng/kg body weight/day
N#Cc1ccc2c(c1)[C@H]1CCCN(C(=O)c3ccc4[nH]cnc4c3)[C@H]1C2 — mean ACTH level (human; 360 mg, day 7): 6.9 pmol/L
CCCC1CCC(c2ccc(OCC)c(F)c2F)CC1 (stereo not drawn) — mean serum concentration (human mother-newborn pairs, maternal serum): 2.27 ng/mL
